Results from different studies.
Every numbered part comes from another study and shows a few of its results, in no order.

Set 1
Target: RNA binding protein fox-1 homolog 2, RRM domain, GST-SBP tag (RBFOX2, Homo sapiens, UniProt O43251-10, residues 100-194)
Technique: RNA Bind-n-Seq
Form: RNA
Medium: in vitro
Tested at: 365 nM
Notes: natural RNA segment, single round, ends assumed
Relative to: no-protein control
Direction: higher = stronger binding
Constant ends, left off below: GGGAGUUCUACAGUCCGACGAUC … UGGAAUUCUCGGGUGCCAA
Target sequence (chain): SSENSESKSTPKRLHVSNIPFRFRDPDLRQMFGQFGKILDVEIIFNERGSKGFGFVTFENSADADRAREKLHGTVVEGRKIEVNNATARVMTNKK
| Sequence | RBNS enrichment (R) |
| --- | --- |
| GUUGUCAAAUUGAUUAGUUUGCCUAAUUCAUGUUUUCACUUAAAAGUAUCAGAGGUGAAUGCACAGUGAAGGGUGAUUUGUGGGGAGGGAGCAUUUUUGGUGGUCUUGGG | 2.13 |
| UGUGCCUGCCACCUGCUGCCCCUGCAGAGUCAUGUGUGUUUGUGGUGGGCAUUUUAAAUAAUUAUUUAAAAGACAGGAAGUAAGCGGUACCGAGCAAUGAAACUGAAGGU | 0.379 |
| UCAUGAUAAUUUGUCAUAACUCAGUAGCAUGACCUGCCCCUAGAAGGUAGUUAAAAUUUGUAAAUGCUAAGGCGUUGCCAGGUCCUAAUGAGUCAGACCUGUACUACUGA | 0.486 |
| UAGGCCUUGAAGAGGCCGAGCUUUCUCCCCCCAAUUGGUGGAGGACAGUCCAGAGAUGAGCAGAAAUCUUAAAUUCCUUCCUGAUCCAGCCUCCACAUGUGGCCUGCCCC | 0.501 |
| AAGGGGAAGUACAGGACUACAUGGAAUCUGAUUUCUGGUGUUGCUUAUUACCAAAAAUGACAGAAUAUUCUUGAUCAAAUGUCUAGAUAUAUUUUUAAUAUUUGGGGCAU | 0.658 |
| CCGCCCUUCAUACUGGGAACAGAAUGUAUGUAACCCAUGUCAAUCAGAUGCAGGUGGUACCCACACGACCAGAGUGAUCAAUAGGAAUUUUCUUGGUGUUCCUUUCUUCC | 3.68 |
| UGGUACACUGUGACAGUGGCUCUAGGGGAGGAGGCCAGGAGCCUGGCCACAGUGUUGGCUGGACUCUGACUCAGUGGCCCAGCCUGCAGCUGGAAGGACACAGGUUGCCG | 0.932 |
| CAAAGUGGAAUAAAAGGUUUCUGAGCAUAAAGUAGCUCUUCAGUAGUUACAACCUAUUCUUUUGCAUACAUAGCCUUUCCUUCCCUGCAAAAAGUUAAGCCUGCUAAGUA | 0.526 |
| CUUUGAAGGCCAGGUAUAUGUGUACCAGUGCUCUUCAAAGGGAGAACCAUUAAAACCAACAUGGAAUGCAGGGACUUCGCCUUAUAAGAUUUCCAGUUUUAAAACUGCCC | 0.481 |
| UUGGAUUUUUUUUUUUUUUAAAUAAAGACCUUAUCUGCCGAAUUUAAUUGUAGAGAUUUGAACCCGAUCAAAGAAAUUUUGAGUUCUCUCAAAUACCAUAAAAGUGUUUG | 0.401 |
| AGACAGGAAAGGGUGCUGUGCUAGUAGUGAGAGUGACACAGAUUGCCUCAUGAUUGUCUGGAGUGUAUCAUGAAACAAAAGUCCACCAUGGAUUGCAAGCUUUAGAACGA | 1.44 |
| GACCAUAGAAUUGCUCUCUAGGAGCUGGGCAUGGUGACCUACGUCUGUAUUCUCAGCACUCAGGAGACUGCUACAGCAGGAUUGAGAGAUCAGAGGCAGGCUUGUCUUUG | 0.273 |

Set 2
Target: Histone acetyltransferase KAT6A, winged helix 2, GST fusion (KAT6A, Homo sapiens, UniProt Q92794, residues 85-181)
Technique: protein binding microarray
Form: double-stranded DNA, one strand shown
Medium: in vitro
Tested at: not given
Notes: 8-mer, flanks averaged, mean of 2 arrays, mostly near background
Relative to: not given
Direction: higher = stronger binding
Construct (chain): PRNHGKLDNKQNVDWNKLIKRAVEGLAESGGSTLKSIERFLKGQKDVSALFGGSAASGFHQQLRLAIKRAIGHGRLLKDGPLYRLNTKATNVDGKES
| Sequence | E-score |
| --- | --- |
| ACAAGTAA | -0.16 |
| CCTGAATC | -0.0266 |
| ACCGGCCA | 0.0663 |
| ACGAAAGC | -0.0282 |
| CAACGAAA | 0.0908 |
| GATGGCCC | 0.0553 |
| AGGCAGAA | 0.0681 |
| AGGATACT | -0.145 |
| AACTTGCT | -0.127 |
| AGATCGGC | 0.101 |
| ACAAGACT | -0.123 |
| AACGCATG | -0.0208 |
| CCCAAACC | 0.114 |
| ATAACCAA | -0.0547 |
| GAACTCCA | 0.0295 |
| CAAGGTTC | -0.0841 |
| ACGGTTCT | -0.0808 |
| CCGGCCTC | 0.15 |
| AAACCCTA | -0.0124 |
| AAACCCGC | 0.176 |
| AAATCATT | -0.00709 |
| ATCGAACC | 0.0143 |
| CTTGAGTA | 0.0316 |
| ACAGACCT | -0.0975 |
| GAATGTTA | -0.148 |

Set 3
Target: Prothrombin, mature alpha-thrombin (F2, Homo sapiens, UniProt P00734)
Technique: aptamer microarray, sandwich
Form: DNA with 2'F-ANA
Medium: in vitro
Tested at: 200 nM
Notes: whole 15-mer aptamer, many near background
Added: Cy3 exosite-II aptamer, 400 nM
Direction: higher = stronger binding
Sequence: GGTTGGTGTGGTTGG
| Modification | mean fluorescence intensity [a.u.] |
| --- | --- |
| 2'F-ANA at 2 4 5 8 14 15 | 48.7 |
| 2'F-ANA at 1 4 6 7 13 14 15 | 94.2 |
| 2'F-ANA at 1 5 8 10 13 15 | 55.2 |
| 2'F-ANA at 2 3 4 5 6 7 8 11 15 | 87 |
| 2'F-ANA at 1 2 3 4 6 8 9 11 12 15 | 253 |
| 2'F-ANA at 3 4 5 7 9 11 13 14 15 | 52.3 |
| 2'F-ANA at 5 7 8 11 15 | 121 |
| 2'F-ANA at 1 2 4 5 6 7 8 11 13 14 | 49.4 |
| 2'F-ANA at 1 5 6 9 11 13 14 | 51.7 |
| 2'F-ANA at 2 3 10 13 14 | 289 |
| 2'F-ANA at 1 2 3 6 7 8 10 11 12 13 15 | 79.8 |
| 2'F-ANA at 2 3 4 7 8 9 12 13 14 | 298 |
| 2'F-ANA at 3 5 6 11 12 | 271 |
| 2'F-ANA at 2 3 5 7 11 13 14 | 78.1 |
| 2'F-ANA at 1 2 4 6 7 9 13 14 | 51.4 |
| 2'F-ANA at 3 9 14 15 | 612 |
| 2'F-ANA at 1 2 4 5 8 9 12 14 15 | 51 |
| 2'F-ANA at 2 4 10 | 105 |
| 2'F-ANA at 1 2 3 4 5 6 7 8 9 13 14 | 49.9 |
| 2'F-ANA at 2 3 5 8 9 10 12 13 14 15 | 53.3 |
| 2'F-ANA at 10 11 12 13 | 193 |
| 2'F-ANA at 2 4 5 8 9 10 11 13 14 | 71.1 |

Set 4
Target: Ras GTPase-activating protein-binding protein 1, C-terminal RGG region (G3BP1, Homo sapiens, UniProt Q13283)
Chain of UniProt Q13283 (whole entry, looked up): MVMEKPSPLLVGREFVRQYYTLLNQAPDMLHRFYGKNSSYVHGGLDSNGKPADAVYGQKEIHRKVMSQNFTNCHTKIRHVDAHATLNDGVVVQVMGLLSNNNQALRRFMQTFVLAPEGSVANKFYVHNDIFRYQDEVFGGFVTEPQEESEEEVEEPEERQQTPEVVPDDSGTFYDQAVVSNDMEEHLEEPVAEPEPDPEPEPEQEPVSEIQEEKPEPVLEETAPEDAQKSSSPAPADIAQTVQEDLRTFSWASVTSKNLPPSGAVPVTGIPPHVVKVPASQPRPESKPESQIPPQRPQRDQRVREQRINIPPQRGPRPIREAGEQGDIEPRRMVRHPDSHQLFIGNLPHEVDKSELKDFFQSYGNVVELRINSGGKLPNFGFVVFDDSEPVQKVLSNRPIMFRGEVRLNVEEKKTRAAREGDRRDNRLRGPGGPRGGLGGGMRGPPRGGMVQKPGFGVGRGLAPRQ
Technique: RNA Bind-n-Seq
Form: RNA
Medium: in vitro
Tested at: 1 µM
Notes: whole 134-nt RNA, ends assumed
Added: 150 mM KCl
Relative to: input library
Direction: higher = stronger binding
Constant ends, left off below: GGGAGUUCUACAGUCCGACGAUC … UGGAAUUCUCGGGUGUCAAGG
| Sequence | log2 enrichment |
| --- | --- |
| CACAGACAACACGCACCCACACAGACACAGAGGGAAGGGGUUGGGAUGGGGACAGAAAGCACAGCAGGGCGGGGUAGGACCCCAGCCCCU | -0.187 |
| AGUCCUGUGCUACACAUCGUAUGUACCGAAUCGGGCCCCCGGGCCCCCGGCCCCCGGGAAAGUAUUAUGUUACGCCGUUCGGAUCUGCAC | -2.32 |
| UCCUCAAGUCCUGUGCUACACAUCGUAUGUACCGAAUCGGCGGGCGGGCGGGAAAGUAUUAUGUUACGCCGUUCGGAUCUGCACUUCCAG | 0.942 |
| UCAAGUCCUGUGCUACACAUCGUAUGUACCGAAUCGGAAAAAGGUGGUUUUUGGAAAGUAUUAUGUUACGCCGUUCGGAUCUGCACUUCC | -1.25 |
| CCUCAAGUCCUGUGCUACACAUCGUAUGUACCGAAUCGGGGUGGGUGGGGUGGAAAGUAUUAUGUUACGCCGUUCGGAUCUGCACUUCCA | 1.15 |
| UUCUCUUCACUCCCACCAGUGCGGGUGGUCUUUGCAGUGACUAUGGAAGGCAGUGCACGGAAAGUCAUCACUGUCCGGUCAGCCCUCAUU | -0.509 |
| UGGCCCUGGUAGCAUGCGGGGAGGAAGAGGUGGCCUCAUGGAUCGUGGUGGUCCCGGUGGAAUGUUCAGAGGUGGCCGUGGUGGAGACAG | 2.31 |
| UCCUGUGCUACACAUCGUAUGUACCGAAUCAAACCCCCAAAUUUUUAAACCCCCCCAAAAAAGUAUUAUGUUACGCCGUUCGGAUCUGCA | -0.715 |
| CAAGUCCUGUGCUACACAUCGUAUGUACCGAAUCGGUUUUGGUUUUGGGUUUUGGGAAAGUAUUAUGUUACGCCGUUCGGAUCUGCACUU | -1.66 |
| UGUGAGCUGACUUUUUGGAUCAACUUUACUUUUCCCUUCUUUUUAGGCAAUUGAAGAUGAAGGUGGUAAUCCUGACGAAAUUGAAAUUAC | -0.567 |
| CUCAAGUCCUGUGCUACACAUCGUAUGUACCGAAUCGGGCCGGCCGGGCCGGGGAAAGUAUUAUGUUACGCCGUUCGGAUCUGCACUUCC | -1.08 |
| UGGCUGCAGGCGCACCCCGGCAGGAUUUUGCCUCCGCUGUCGCCCCCGCAGCACCGCUACUCGGAGGGCGAGCGGACCUCCCUGGAGAAG | -0.945 |
| CAAGUCCUGUGCUACACAUCGUAUGUACCGAAUCGGGGAGGGGUUUGGGGAGGGGAAAGUAUUAUGUUACGCCGUUCGGAUCUGCACUUC | 3.49 |
| ACCAUGCAGGUGGGCAUCUUUGGGAAGUGGGGCAAGGGGGGAAUAGGGAGGGGGGUAACACUUUGGGAACAGGUGGUCCCAGGUCGUUUC | 2.16 |

Some of these lines once more (set 2):
| Sequence | E-score |
| --- | --- |
| AAACCCGC | 0.176 |
| ACGAAAGC | -0.0282 |
| AGGATACT | -0.145 |
| AGATCGGC | 0.101 |
| ACGGTTCT | -0.0808 |
| ATCGAACC | 0.0143 |
| ACAGACCT | -0.0975 |
| ACAAGACT | -0.123 |
| CAAGGTTC | -0.0841 |
| AAATCATT | -0.00709 |
| ATAACCAA | -0.0547 |
